Assay results pooled from the literature.
Several values in a cell are separate wells, animals, samples, runs or records. ± marks the error that the study gave. Values after ≈ are worked out from the molar mass of the structure shown.

SMILES = Cc1cc(N2CC[C@@](C#N)(C3(C)CC3)C2=O)cc(C(=O)NCc2cc(F)cc(-c3cnn(C)c3)c2)n1; tested on = Plasmodium falciparum; test system = Pf3D70087/N9, humanized SCID mouse; conditions = 10 mg/kg, 4-day test, day 0 post-infection; measurement = parasitaemia; result = 0.01%
SMILES = CC(C)(C)NCC(SS(=O)(=O)O)c1ccccc1 (stereo not shown); tested on = Schistosoma mansoni; assay = perfusion day 57; test system = infected Swiss Webster mice; conditions = 200 mg/kg daily x4, dosing from day 7; measurement = liver weight; result = 1.73 g and 2.04 g and 1.89 g and 1.65 g and 2.38 g
SMILES = C=CC(=O)Nc1cccc(Cn2ncc3cnc(Nc4cnn(CCOC)c4)nc32)c1; tested on = PDPK1 human; assay = binding, KINOMEscan; conditions = 100 nM; scale = lower = stronger binding; measurement = percent of control; result = 75%
SMILES = Cc1cc(C(=O)Nc2nc3cccc(C)c3n2[C@H]2CCCCN(C(=O)/C=C/CN(C)C)C2)ccn1; tested on = Trypanosoma brucei; assay = wash-off; conditions = 24 h; measurement = minimum cidal concentration; result = 50 µM
SMILES = CN1CCCNC(=O)c2cccc(c2)C(=O)NCCCN(C)CCCNc2cccc3c2C(=O)c2cccc(c2C3=O)NCCC1; tested on = SAS; assay = RNA-Seq, measured: HNRNPD mRNA; conditions = 1 µM, 6 h; scale = reference: untreated cells; measurement = log2 fold change; result = 0.282
SMILES = COC1CN([C@H]2CC[C@H]([C@@]3(C)Oc4c(Cl)cc(C(=O)NCc5c(SC)cc(C)[nH]c5=O)c(C)c4O3)CC2)C1; assay = RNA-seq, measured: TREM2 mouse homolog; test system = mouse, HT-1376 xenograft, whole blood; conditions = dose not given; scale = reference: vehicle; measurement = log2 fold change; result = 0.148
SMILES = Cc1ncsc1-c1ccc(C(C)NC(=O)C2CC(O)CN2C(=O)C(NC(=O)CCCCCCCCCCN2CCCC(Nc3ncc(Cl)c(Nc4ccccc4S(=O)(=O)C(C)C)n3)C2)C(C)(C)C)cc1 (stereo not shown); tested on = 22Rv1; assay = RNA-seq, measured: ZNF319 mRNA; conditions = concentration not given; scale = reference: DMSO; measurement = log2 fold change; result = -1.91
SMILES = Nc1ncc(-c2cc(-c3cnn(CC(F)(F)F)c3)ncc2F)nc1C(=O)NC1CNCC(F)C1 (stereo not shown); tested on = PIP5K2C; assay = KINOMEscan; conditions = 1 µM; scale = reference: DMSO control; measurement = remaining binding; result = 71%
SMILES = CN(Cc1ccc(C2(C(F)(F)F)CCC2)cc1)Cc1cccc2ccccc12; tested on = Trichophyton rubrum; assay = microbial growth, disc diffusion; test system = ATCC28188; conditions = 0.512 µg/mL, 6 days; measurement = inhibition zone; result = 52.5 mm
SMILES = NC(=O)c1cccc(NC(=O)c2cc(-c3ccccc3)n(-c3ccccc3)n2)c1; tested on = Dengue virus; assay = viral replication, inhibitor, imaging; test system = Vero, DENV2; conditions = 12.5 µM; measurement = inhibition; result = < 50%
SMILES = CNS(=O)(=O)Nc1nccc(Cc2c(C)c3ccc(Oc4ncccc4F)cc3oc2=O)c1F; tested on = NCI-H3122; assay = cell viability; conditions = 7 days; measurement = IC50; result = 194 nM
SMILES = N=C(N)NCCC[C@@H]1NC(=O)[C@H](CCCNC(=N)N)NC(=O)[C@@H](CCCNC(=N)N)NC(=O)[C@@H](CCCNC(=N)N)NC(=O)[C@@H](C(c2ccccc2)c2ccccc2)NC(=O)[C@H](Cc2c[nH]c3ccccc23)NC(=O)[C@@H](C(c2ccccc2)c2ccccc2)NC1=O; tested on = Candida albicans; test system = ATCC 60193; conditions = 1 x MIC, 24 h, preformed biofilm; measurement = biofilm mass reduction; result = 46%
SMILES = COC1C=COC2(C)Oc3c(C)c(O)c4c(c3C2=O)C2=NC3(CCN(CC(C)C)CC3)NC2=C(NC(=O)C(C)=CC=CC(C)C(O)C(C)C(O)C(C)C(OC(=O)Nc2cnccn2)C1C)C4=O (stereo not shown); tested on = Mycobacteroides abscessus; assay = bacterial growth; test system = subsp. abscessus Bamboo; measurement = IC90; result = 75 nM
SMILES = CC1C=CC=CC(C)C2C=CC3CC(C)(O)C(Cl)C(C)C3C2C(=O)C(Cl)(Cl)C(=O)C(C)C(=O)O1 (stereo not shown); tested on = Staphylococcus aureus; test system = MSSA and MRSA clinical isolates; conditions = 180 isolates; measurement = MIC50; result = 0.1 µg/mL (≈ 0.188 µM)
SMILES = CN(C(=O)[C@H](Cc1ccccc1)NC(=O)Cc1c[nH]c2ccc(O)cc12)c1ccc(Cl)cc1; tested on = human immunodeficiency virus 1; assay = viral replication; test system = NL4-3 with subtype AE gag/pol; measurement = EC50; result = 18 ± 4 nM
SMILES = C=C(NC(=O)c1csc(-c2nc3c(cc2O)-c2nc(cs2)C(=O)NC(C(C)O)C(=O)NC(=C(C)OC)c2nc(cs2)C(=O)NC2c4nc(cs4)C(=O)NC(COC(=O)c4c5c6c(cccc6n4O)COC(=O)C(OC4CC(C)(O)C(N(C)C)C(C)O4)C2OC5)c2nc-3cs2)n1)C(N)=O (stereo not shown); tested on = Streptococcus pneumoniae; test system = -4, immunocompromised mice, lung infection; conditions = 16 mg/kg/day, twice daily, 24 h post-dose; measurement = lung bacterial load; result = 6.52 log CFU/g
SMILES = CCCCCCCCCC(=O)N[C@@H](Cc1c[nH]c2ccccc12)C(=O)N[C@H](CC(N)=O)C(=O)N[C@@H](CC(=O)O)C(=O)N[C@@H]1C(=O)NCC(=O)N[C@@H](CCCNC(=O)OC2/C=C/CCCCC2)C(=O)N[C@@H](CC(=O)O)C(=O)N[C@H](C)C(=O)N[C@@H](CC(=O)O)C(=O)NCC(=O)N[C@H](CO)C(=O)N[C@@H]([C@H](C)CC(=O)O)C(=O)N[C@@H](CC(=O)c2ccccc2N)C(=O)O[C@@H]1C (stereo partly shown); tested on = Staphylococcus aureus; assay = isothermal microcalorimetry; test system = MSSA; conditions = 3.0 µg/mL, 24 h, 37 °C; measurement = peak heat flow; result = 0 µW
SMILES = CCCCNCCO.O=C(O)C(Cl)Cl; tested on = Xanthium sibiricum; conditions = 15 mg/mL, 21 days, pre-emergence, greenhouse; measurement = herbicidal inhibition; result = 0%
SMILES = c1ccc2c([C+](c3c[nH]c4ccccc34)c3c[nH]c4ccccc34)c[nH]c2c1; tested on = Clostridioides difficile; assay = microbial growth, absorbance; measurement = IC50; result = > 50000 nM

Excerpt of the above:
SMILES = C=CC(=O)Nc1cccc(Cn2ncc3cnc(Nc4cnn(CCOC)c4)nc32)c1; tested on = PDPK1 human; assay = binding, KINOMEscan; conditions = 100 nM; scale = lower = stronger binding; measurement = percent of control; result = 75%
SMILES = Cc1cc(C(=O)Nc2nc3cccc(C)c3n2[C@H]2CCCCN(C(=O)/C=C/CN(C)C)C2)ccn1; tested on = Trypanosoma brucei; assay = wash-off; conditions = 24 h; measurement = minimum cidal concentration; result = 50 µM
SMILES = CN1CCCNC(=O)c2cccc(c2)C(=O)NCCCN(C)CCCNc2cccc3c2C(=O)c2cccc(c2C3=O)NCCC1; tested on = SAS; assay = RNA-Seq, measured: HNRNPD mRNA; conditions = 1 µM, 6 h; scale = reference: untreated cells; measurement = log2 fold change; result = 0.282
